Published values pooled from the literature.
Numbered parts are unrelated; each lists some results of a single study.

Series 1 — method: protein-binding microarray; molecule type: double-stranded DNA, one strand shown; matrix: in vitro; tested at: 2200 nM top; setting: 60-bp whole probe; together with: salmon DNA 0.4 mg/ml; relative to: random background probes; reading: higher = stronger binding; constant ends, left off below: GCCTAGCAC … GTCTTGATTCGCTTGACGCTGCTG
Target: Interferon regulatory factor 7, full length, phosphomimetic (IRF7, Homo sapiens, UniProt Q92985, residues 1-503, S471D/S472D/S475D/S476D/S477D/S483D/S484D/S487D)
Target sequence (chain): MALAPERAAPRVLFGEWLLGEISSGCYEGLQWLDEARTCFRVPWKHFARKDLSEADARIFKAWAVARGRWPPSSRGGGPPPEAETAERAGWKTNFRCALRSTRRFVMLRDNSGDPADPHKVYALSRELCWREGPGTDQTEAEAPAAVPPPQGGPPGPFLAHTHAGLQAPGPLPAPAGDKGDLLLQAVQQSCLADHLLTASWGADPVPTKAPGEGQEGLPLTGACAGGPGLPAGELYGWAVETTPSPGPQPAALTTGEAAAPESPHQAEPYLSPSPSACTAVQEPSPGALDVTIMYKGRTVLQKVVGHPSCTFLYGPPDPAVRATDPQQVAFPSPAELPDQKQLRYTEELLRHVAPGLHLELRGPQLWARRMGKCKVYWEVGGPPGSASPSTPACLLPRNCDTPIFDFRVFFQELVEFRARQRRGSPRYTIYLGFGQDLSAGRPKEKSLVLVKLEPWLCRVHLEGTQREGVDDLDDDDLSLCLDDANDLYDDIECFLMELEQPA
`TTAGATTTCGGGGCTGGATTAGTGCTA` — result for “fitted relative affinity”: 0.735 z-score.
`GGGGATAAACTTAATGGATGGTGCTAG` — result for “fitted relative affinity”: -0.438 z-score.
Under “fitted relative affinity”, `TTAGGACTGGGGACTGGGTAAGTGCTA` is recorded as -1.04 z-score.
Under “fitted relative affinity”, `TCCCATTAAATTTTAATAACGTGCTAG` is recorded as 0.278 z-score.
`TCAATTCCTGATCTCTGACTGTGCTAG` — result for “fitted relative affinity”: 1.31 z-score.

Series 2 — method: universal PBM; molecule type: double-stranded DNA, one strand shown; matrix: in vitro; tested at: not given; reading: higher = stronger binding
Target: Sal-like protein 4, full length isoform B (SALL4, Homo sapiens, UniProt Q9UJQ4-2, residues 1-616)
Setting: 8-mer, flanks averaged, mean of replicates
Construct (chain): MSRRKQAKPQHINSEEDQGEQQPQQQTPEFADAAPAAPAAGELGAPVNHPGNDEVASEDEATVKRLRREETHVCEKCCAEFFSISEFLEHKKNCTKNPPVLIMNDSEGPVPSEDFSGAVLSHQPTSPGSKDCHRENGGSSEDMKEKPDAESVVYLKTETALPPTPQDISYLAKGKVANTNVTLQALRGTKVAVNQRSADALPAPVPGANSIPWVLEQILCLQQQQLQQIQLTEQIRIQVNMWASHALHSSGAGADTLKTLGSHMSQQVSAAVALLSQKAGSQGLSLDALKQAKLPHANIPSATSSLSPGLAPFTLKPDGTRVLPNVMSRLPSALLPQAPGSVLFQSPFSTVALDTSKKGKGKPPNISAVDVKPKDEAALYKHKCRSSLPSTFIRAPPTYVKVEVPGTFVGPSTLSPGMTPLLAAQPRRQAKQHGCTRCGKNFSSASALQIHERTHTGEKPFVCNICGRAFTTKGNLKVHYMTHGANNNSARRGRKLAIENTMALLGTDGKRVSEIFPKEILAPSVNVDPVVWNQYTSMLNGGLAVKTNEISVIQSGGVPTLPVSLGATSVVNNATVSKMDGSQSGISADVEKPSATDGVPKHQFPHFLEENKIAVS
With `TCCAGAAA` the E-score was 0.0871.
With `AGGTCGCA` the E-score was -0.0612.
With `CTTCTGTA` the E-score was 0.14.
For `TACGGGCA`, the E-score was -0.17.

Series 3 — method: protein-binding microarray; molecule type: double-stranded DNA, one strand shown; matrix: in vitro; tested at: not given; reading: higher = stronger binding
Target: Hepatocyte nuclear factor 3-beta, forkhead domain (FOXA2, Homo sapiens, UniProt Q9Y261, residues 142-269)
Setting: k-mer, scored over probes, only values ≥0.25
Construct (chain): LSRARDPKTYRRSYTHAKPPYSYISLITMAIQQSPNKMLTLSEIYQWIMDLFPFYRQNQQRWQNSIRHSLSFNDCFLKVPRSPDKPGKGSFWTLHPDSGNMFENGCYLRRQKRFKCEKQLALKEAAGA
The E-score of `AGAGTAAA` is reported as 0.274.
`AATATAAG` has an E-score of 0.348.
The E-score of `ATATATAC` is reported as 0.351.
For `ATGCAGTA`, the E-score was 0.256.

Mixed results
With `PhoQ, residues 284 288 289 292 302 303 SSTLLI` the fold induction was 9.44 (PhoP, residues 12 14 15 18 19 VQGLL (Escherichia coli, UniProt P23836); Sort-seq, measured: YFP reporter; E. coli; PhoQ-PhoP variant library, together with: 10 µM Mg2+; relative to: high Mg2+ state, higher = stronger signaling).

Excerpt of the above (series 1):
Under “fitted relative affinity”, `TCCCATTAAATTTTAATAACGTGCTAG` is recorded as 0.278 z-score.
`TCAATTCCTGATCTCTGACTGTGCTAG` — result for “fitted relative affinity”: 1.31 z-score.
